Measurements gathered from unrelated publications.
Lines come from different studies, so protocols differ. ± gives the spread as reported.
Oprk1: Kappa-type opioid receptor (Oprk1, Rattus norvegicus, UniProt P34975)
ampC: Beta-lactamase (ampC, Escherichia coli K-12, UniProt P00811)

| SMILES | target | test | system | setting | scale | endpoint | result |
| --- | --- | --- | --- | --- | --- | --- | --- |
| CNC(=O)c1cc(C(=O)NC)cc(-c2ccc(O[C@H]3O[C@H](CO)[C@@H](O)[C@H](O)[C@@H]3O)c(C)c2)c1 | Type 1 fimbrin D-mannose specific adhesin, lectin domain (fimH, Escherichia coli K-12, UniProt P08191) | binding, differential scanning fluorimetry |  |  | higher = stronger binding | melting temperature | 75.8 °C |
| Clc1ccc2c(c1)N=C(N1CCNCC1)c1ccccc1N2 | Muscarinic acetylcholine receptor M3 (CHRM3, Homo sapiens, UniProt P20309) | calcium flux, agonist, FLIPR |  |  | reference: acetylcholine | Emax | 86% |
| CSCC[C@H](NC(=O)[C@H](CCCNC(=N)N)NC(=O)[C@H](CO)NC(=O)[C@@H](NC(=O)[C@H](CC(=O)O)NC(=O)[C@H](CC(=O)O)NC(=O)CCCCCNC(=O)c1ccc2c(c1)C(=O)OC21c2ccc(O)cc2Oc2cc(O)ccc21)[C@@H](C)O)C(=O)N[C@@H](CCC(=O)O)C(=O)N[C@@H](CCCCN)C(=O)N[C@H](C(=O)N[C@@H](CC(=O)O)C(=O)O)C(C)C | E3 ubiquitin-protein ligase CHIP (STUB1, Homo sapiens, UniProt Q9UNE7) | fluorescence polarization |  | pH 7.4 | reference: wild-type tracer | affinity decrease | ≥ 3 fold |
| CC(C)C[C@H](NC(=O)/C=C/c1ccc(OP(=O)(O)O)cc1)C(=O)N1CCC[C@H]1C(=O)NCC#CC(N)=O | Signal transducer and activator of transcription 3, SH2 domain (STAT3, Homo sapiens, UniProt P40763) | fluorescence polarization |  | concentration not given | reference: Aba analogue | affinity reduction | ~2 fold |
| Cc1c(-c2cccc(C3=NCCN3)c2)oc(-c2cccc(C3=NCCN3)c2)c1C | androgen receptor promoter G-quadruplex DNA | G-quadruplex stabilisation, FRET melting |  | 1 µM |  | ΔTm | 15.4 °C |
| CN1C(=O)C2(Cc3ccc(CC45SSC(CO)(C(=O)N4C)N(C)C5=O)cc3)SSC1(CO)C(=O)N2C (racemic) | Histone acetyltransferase p300, CH1 domain (EP300, Homo sapiens, UniProt Q09472) | circular dichroism |  | p300 CH1 domain GST fusion |  | concentration causing unfolding | 10 µM |
| CN1C(=O)[C@H](CCC(=O)O)NC(=O)[C@H](Cc2ccc(O)cc2)NC(=O)[C@H](CCCNC(=N)N)NC(=O)[C@@H](Cc2ccc(O)cc2)NC(=O)CSC[C@@H](C(=O)N2CCC[C@H]2C(=O)N[C@@H](CCCCN)C(=O)N[C@@H](CS)C(N)=O)NC(=O)[C@H](CCC(=O)O)NC(=O)[C@H](Cc2ccc(O)cc2)N(C)C(=O)[C@H](CCCCN)NC(=O)[C@H](Cc2ccc(O)cc2)NC(=O)[C@@H]1Cc1ccc(O)cc1 | 2,3-bisphosphoglycerate-independent phosphoglycerate mutase (gpmI, Staphylococcus aureus, UniProt Q6GIL5) | thermal stability, thermal shift |  |  |  | Tm | 48.7 °C |
| C[C@]1(COC(=O)c2ccc(O)c(O)c2)[C@H](C(=O)O)N2C(=O)/C(=C/c3ccccn3)[C@H]2S1(=O)=O | Beta-lactamase OXA-23 (OXA-23, Acinetobacter baumannii, UniProt Q9L4P2) | enzyme activity, inhibitor, absorbance |  |  |  | kinact | 0.04 s⁻¹ |
| C[C@@H]1NC(=O)[C@H](CCCNC(=N)N)NC(=O)[C@H](NC(=O)[C@H](Cc2ccccc2)NC(=O)CNC(=O)CNC(=O)[C@H](Cc2ccc(O)cc2)NCc2ccccc2)CC(=O)NC[C@@H](C(=O)N[C@@H](CCCNC(=N)N)C(=O)N2CCC[C@H]2C(=O)N[C@@H](CCCCN)C(N)=O)NC1=O | Oprk1 | binding |  |  | reference: zyklophin | affinity fold decrease | 3 fold |
| CCCC[C@H](NC(=O)[C@H](CC(=O)O)NC(=O)[C@H](CC(=O)O)NC(=O)[C@H](CCC(=O)O)NC(=O)[C@H](Cc1ccc(OP(=O)(O)O)cc1)NC(=O)[C@H](CC(=O)O)NC(=O)[C@H](CC(=O)O)NC(=O)[C@H](CCC(=O)O)NC(=O)[C@H](CC(C)C)NC(=O)[C@H](CCC(=O)O)NC(=O)[C@H](CCC(=O)O)NC(=O)c1ccc2c(c1)C1(OC2=O)c2ccc(O)cc2Oc2cc(O)ccc21)C(=O)N[C@@H](CCC(=O)O)C(=O)N[C@@H](CCC(=O)O)C(N)=O | Tyrosine-protein phosphatase non-receptor type 1 (PTPN1, Homo sapiens, UniProt P18031) | substrate |  |  |  | Km | 0.77 ± 0.25 µM |
| COc1cncc(B(O)O)c1 | ampC |  |  |  |  | ligand efficiency | 0.66 |
| CC(=O)Oc1ccc(C(=O)O)c(OC(C)=O)c1 | ampC |  |  |  |  | ligand efficiency | 0.24 |
| C=C(C)C(=O)Oc1ccc(C(C)(C)c2ccc(OC(=O)C(=C)C)cc2)cc1 | Estrogen receptor (ESR1, Homo sapiens, UniProt P03372) | reporter gene, agonist | MVLN | 24 h |  | maximal effect concentration | 10 µM |
| COc1cc(C=O)ccc1OCc1cccc(CO)n1 | Hemoglobin subunit alpha, with beta chain (HBA1, Homo sapiens, UniProt P69905) | kinetic binding, cation-exchange HPLC |  | 37 °C |  | koff | 2.78e-05 s⁻¹ |
| CC(C)C[C@H](NC(=O)[C@H](CCCNC(=N)N)NC(=O)[C@H](Cc1c[nH]c2ccccc12)NC(=O)[C@H](Cc1ccccc1)NC(=O)[C@H](Cc1ccccc1)N(C)C(=O)COc1ccccc1)C(=O)N[C@@H](CCCNC(=N)N)C(=O)N[C@@H](CCCNC(=N)N)C(=O)N[C@H](C)C(=O)N[C@@H](CCCNC(=N)N)C(=O)N1CCC[C@H]1C(=O)N[C@@H](CCCCN)C(N)=O | Oprk1 | agonist | CHO cells | 10 µM | reference: dynorphin A(1-13) amide | adenylyl cyclase activity | > 90% |
| CC(=O)N[C@@H](CC(C)C)C(=O)N[C@@H](CCC(=O)O)C(=O)N[C@@H](Cc1c[nH]cn1)C(=O)N[C@@H](CC(=O)O)C(=O)Nc1ccc2c(C)cc(=O)oc2c1 | Caspase-3 (CASP3, Homo sapiens, UniProt P42574) | substrate cleavage, substrate, fluorogenic AMC release |  | enzyme 0.25 activity units/µL |  | Vmax | 289 ± 33.2 RFU/min |
| C[C@@]12CC[C@@H]3c4cc(Cl)c(O)c(Cl)c4CC[C@H]3[C@@H]1CCC2=O | Aldo-keto reductase family 1 member C1 (AKR1C1, Homo sapiens, UniProt Q04828) | enzyme activity, inhibitor, absorbance |  | 100 µM, pH 9 |  | inhibition | 95.9% |
| FC(F)(F)c1ccc(Nc2c3c(nc4ccccc24)CCCC3)cc1 | Acetylcholinesterase (ache, Electrophorus electricus, UniProt O42275) |  |  | 100 µM |  | inhibition | 94.5 ± 1.71% |
| Cn1ccc(-c2ccc(Cn3cc(C(=O)N[C@H]4CCCC[C@@H]4O)c4c(F)cc(F)cc43)cn2)n1 | Muscarinic acetylcholine receptor M1 (CHRM1, Homo sapiens, UniProt P11229) | calcium mobilization, agonist | CHO cells |  | reference: ACh maximum | maximum response | 48 ± 12% |
| CC[C@H](C)[C@H](NC(=O)[C@H](CCC(N)=O)NC(=O)[C@H](CC(C)C)NC(=O)[C@@H](NC(=O)CNC(=O)[C@H](Cc1ccc(O)cc1)NC(=O)[C@H](CC(=O)O)NC(=O)[C@@H](NC(=O)[C@H](CO)NC(=O)CNC(=O)[C@H](CC(=O)O)NC(=O)[C@@H](NC(=O)[C@H](CC(N)=O)NC(=O)[C@H](CCCNC(=N)N)NC(=O)[C@H](CC(N)=O)NC(=O)[C@@H](NC(=O)[C@H](C)NC(=O)[C@H](CCC(N)=O)NC(=O)[C@@H](NC(=O)[C@H](CC(N)=O)NC(=O)[C@H](Cc1ccccc1)NC(=O)[C@H](CC(N)=O)NC(=O)[C@H](CO)NC(=O)[C@H](CCC(=O)O)NC(=O)[C@H](Cc1ccccc1)NC(=O)[C@H](CCCCN)NC(=O)[C@H](C)NC(=O)[C@H](C)NC(=O)[C@H](CO)NC(=O)[C@@H](NC(=O)[C@H](Cc1c[nH]c2ccccc12)NC(=O)[C@H](CC(N)=O)NC(=O)CNC(=O)[C@H](CC(C)C)NC(=O)[C@H](CO)NC(=O)[C@H](Cc1ccc(O)cc1)NC(=O)CNC(=O)[C@H](CCCNC(=N)N)NC(=O)[C@H](Cc1ccc(O)cc1)NC(=O)[C@H](CC(N)=O)NC(=O)[C@@H](N)CC(=O)O)C(C)C)[C@@H](C)O)[C@@H](C)O)[C@@H](C)O)[C@@H](C)O)[C@@H](C)CC)C(=O)O | Periplasmic serine endoprotease DegP (degP, Escherichia coli, UniProt P0C0V0, C83S/C95S/N322C) | FRET |  | 5, 10 or 20 µM |  | assembled state duration | 5 to 15 min |
| CCN(CC)CCOc1ccc(-c2nnn(Cc3ccc(OC)cc3)c2N)cc1 | TGF-beta receptor type-1, with Smad2 (TGFBR1, Homo sapiens, UniProt P36897) | TGFBR1-SMAD2 interaction, pull-down |  | 10 µM |  | binding | no effect |
| CCN(Cc1ccccc1)C(=O)CCc1nc(CN2CCN(C(=O)Cc3ccc(OC)c(OC)c3)CC2)no1 | Sodium channel protein type 9 subunit alpha (SCN9A, Homo sapiens, UniProt Q15858) | sodium current, whole-cell patch clamp | HEK293 stably expressing NaV1.7 | 10 µM | reference: control, towards hyperpolarisation | inactivation curve shift | 5.81 mV |
| COC(=O)C1C(OC(c2ccc(Cl)cc2)c2ccc(Cl)cc2)CC2CCC1N2C (single isomer, unassigned) | Adenosine receptor A2a (ADORA2A, Homo sapiens, UniProt P29274) | binding |  | 10000 nM, added: [3H]CGS-21680 |  | displacement | inactive |
| CC(C)P(=S)(NP(=[Se])(C(C)C)C(C)C)C(C)C | Alpha-amylase (Bacillus subtilis, UniProt P00691) | binding, FRET |  | 298 K |  | donor–acceptor distance | 2.03 nm |
| CC(=O)N[C@H]1[C@@H](OP(=O)(O)OP(=O)(O)OC/C=C(/C)CC/C=C(/C)CC/C=C(/C)CC/C=C(/C)CC/C=C(/C)CC/C=C(/C)CC/C=C(/C)CC/C=C(/C)CC/C=C(\C)CC/C=C(\C)CCC=C(C)C)O[C@H](CO)[C@@H](O)[C@@H]1O[C@H](C)C(=O)N[C@@H](C)C(=O)N[C@H](CCC(=O)N[C@@H](CCCCNC(=O)OCCCCCCNC(=S)Nc1ccc(NS(=O)(=O)c2cccc3c(N(C)C)cccc23)cc1)C(=O)N[C@H](C)C(=O)N[C@H](C)C(=O)O)C(=O)O | UDP-N-acetylglucosamine--N-acetylmuramyl-(pentapeptide) pyrophosphoryl-undecaprenol N-acetylglucosamine transferase (murG, Mycolicibacterium smegmatis, UniProt A0R016) | substrate |  | added: UDP-GlcNAc 375.0 µM |  | Km | 40 ± 5 µM |
| COc1ccc(C)cc1NC(=O)OC1CC2CCCC(C1)N2Cc1ccc(CC[18F])cc1 (stereo not drawn) | Sigma intracellular receptor 2 (Tmem97, Mus musculus, UniProt Q8VD00) | receptor binding, saturation radioligand binding | mouse, EMT6 tumour membrane homogenate |  |  | Bmax | ~3700 fmol/mg protein |
| C[C@H](CCC(=O)NCC(=O)O)[C@H]1CC[C@H]2[C@@H]3C(=O)C[C@H]4C[C@H](O)CC[C@]4(C)[C@H]3CC[C@]12C | Ileal sodium/bile acid cotransporter (SLC10A2, Homo sapiens, UniProt Q12908) | substrate | SLC10A2-MDCK cells | 10 min, added: with vs without sodium |  | Kt | 34 ± 7.64 µM |
| O=C(/C=C/c1ccccc1F)c1cc2ccccc2oc1=O | Beta-secretase 1 (BACE1, Homo sapiens, UniProt P56817) | enzyme activity, inhibitor, fluorescence |  | 10 µM |  | remaining activity | 89.1% |
| COc1ccc2cc1Oc1ccc(cc1)C[C@H]1c3cc(c(OC)cc3CC[N+]1(C)Cc1ccc3ccccc3c1)Oc1c(OC)c(OC)cc3c1[C@H](C2)[N+](C)(Cc1ccc2ccccc2c1)CC3 (mixture of isomers) | poly(dA)·poly(dT) 18-bp dsDNA | DNA binding, ethidium bromide displacement | phosphate buffer, 10% DMSO | pH 7.2, 25 °C, dsDNA 10 µM, 10 mM NaCl, added: ethidium bromide 5 µM |  | Stern-Volmer constant | 14500 M⁻¹ |
| Nc1ncnc2c1ccn2[C@@H]1O[C@@H]2COP(=O)(O)O[C@H]3[C@@H](O)[C@H](n4ccc5c(N)ncnc54)O[C@@H]3COP(=O)(O)O[C@H]2[C@H]1O | ydaO riboswitch wild type (Bacillus subtilis) | competition gel-shift |  | concentration not given | reference: c-di-AMP, higher = weaker binding | binding affinity fold loss | 12 |

Some of these lines once more:
| SMILES | target | test | system | setting | scale | endpoint | result |
| --- | --- | --- | --- | --- | --- | --- | --- |
| CSCC[C@H](NC(=O)[C@H](CCCNC(=N)N)NC(=O)[C@H](CO)NC(=O)[C@@H](NC(=O)[C@H](CC(=O)O)NC(=O)[C@H](CC(=O)O)NC(=O)CCCCCNC(=O)c1ccc2c(c1)C(=O)OC21c2ccc(O)cc2Oc2cc(O)ccc21)[C@@H](C)O)C(=O)N[C@@H](CCC(=O)O)C(=O)N[C@@H](CCCCN)C(=O)N[C@H](C(=O)N[C@@H](CC(=O)O)C(=O)O)C(C)C | E3 ubiquitin-protein ligase CHIP (STUB1, Homo sapiens, UniProt Q9UNE7) | fluorescence polarization |  | pH 7.4 | reference: wild-type tracer | affinity decrease | ≥ 3 fold |
| CC(C)C[C@H](NC(=O)/C=C/c1ccc(OP(=O)(O)O)cc1)C(=O)N1CCC[C@H]1C(=O)NCC#CC(N)=O | Signal transducer and activator of transcription 3, SH2 domain (STAT3, Homo sapiens, UniProt P40763) | fluorescence polarization |  | concentration not given | reference: Aba analogue | affinity reduction | ~2 fold |
| Cc1c(-c2cccc(C3=NCCN3)c2)oc(-c2cccc(C3=NCCN3)c2)c1C | androgen receptor promoter G-quadruplex DNA | G-quadruplex stabilisation, FRET melting |  | 1 µM |  | ΔTm | 15.4 °C |
